Experimental data pooled from the literature.
Protocols differ between the studies behind these lines.
Cell line: HepG2

`NCC1OC(OC2C(N)CC(N)C(OC3OC(CO)C(O)C(N)C3O)C2OCCCCCCCCCCCCn2cc(CNc3nc(NCc4cn(CCCCCCCCCCCCOC5C(OC6OC(CN)C(O)CC6N)C(N)CC(N)C5OC5OC(CO)C(O)C(N)C5O)nn4)nc(NCc4cn(CCCCCCCCCCCCOC5C(OC6OC(CN)C(O)CC6N)C(N)CC(N)C5OC5OC(CO)C(O)C(N)C5O)nn4)n3)nn2)C(N)CC1O` (stereo not shown) has a viability of 27% (cell growth or viability, resazurin; 27 µM, 48 h).
With `CCOC(=O)c1cn(-c2nc(C(F)(F)F)n[nH]2)nn1` the viability was 84.3% (cell growth or viability, MTT; 500 µM, 72 h).
Under viability, `COc1cc(-c2nc3ccc(C(=O)NCCCN(C)C)cc3n2C2CCC2)cc(OC)c1OC` is recorded as “not toxic” (CellTiter-Glo; up to 100 µM, 24 h).
`COc1ccc(Nc2nccc(-c3c[nH]nc3-c3cccnc3)n2)cc1` gave a viability of 78% (cell growth or viability; 30 µM).
`Cc1ccc(C(C)C)c(O)c1` has a viability of 93% (cell growth or viability, MTT; 25 µM, 24 h).
`CC1=CC(OC(=O)c2ccccc2)C2(COC(=O)c3ccccc3)CCC(=C(C)C)C2C(O)CC2(C)OC2CC1` (stereo not shown) has a viability of 68% (cell growth or viability, CCK-8; 50 µM, 24 h).
With `CC(=O)O[C@@H]1CC[C@@]2(C)C(CC[C@]3(C)C2C(=O)C=C2C4[C@@H](C)[C@H](C)CC[C@]4(C)CC[C@]23C)[C@@]1(C)C(=O)N/N=C\c1ccc2c(c1)OCO2` (stereo partly shown) the viability was 88% (cell growth or viability, MTT; 25 µM, 24 h).
For `CC(C)=CCc1c(O)cc2c(c1O)C(=O)OC2`, the viability was 94.5% (cell growth or viability, CCK-8; 10 µM, 24 h).
`CC(=O)O[C@@H]1CC[C@@]2(C)C(CC[C@]3(C)C2C(=O)C=C2C4[C@@H](C)[C@H](C)CC[C@]4(C)CC[C@]23C)[C@@]1(C)c1nnc(SCC(=O)OC2CC(C)CCC2C(C)C)o1` (stereo partly shown) has a viability of 99% (cell growth or viability, MTT; 25 µM, 24 h).
For `COc1cc([C@@H]2OC[C@@H]3[C@H]2CO[C@H]3c2cc(OC)c(O)c(OC)c2)cc(OC)c1O`, the viability was 76.2% (cell growth or viability, CCK-8; 40 µM, 24 h).

A few entries again:
`COc1ccc(Nc2nccc(-c3c[nH]nc3-c3cccnc3)n2)cc1` gave a viability of 78% (cell growth or viability; 30 µM).
`CC1=CC(OC(=O)c2ccccc2)C2(COC(=O)c3ccccc3)CCC(=C(C)C)C2C(O)CC2(C)OC2CC1` (stereo not shown) has a viability of 68% (cell growth or viability, CCK-8; 50 µM, 24 h).
